Experimental data pooled from the literature.
Compare with care: the assays were run in different laboratories. “And” joins repeats or separate records; there may be more than shown.
Sequence of UniProt Q04771 (whole entry, looked up): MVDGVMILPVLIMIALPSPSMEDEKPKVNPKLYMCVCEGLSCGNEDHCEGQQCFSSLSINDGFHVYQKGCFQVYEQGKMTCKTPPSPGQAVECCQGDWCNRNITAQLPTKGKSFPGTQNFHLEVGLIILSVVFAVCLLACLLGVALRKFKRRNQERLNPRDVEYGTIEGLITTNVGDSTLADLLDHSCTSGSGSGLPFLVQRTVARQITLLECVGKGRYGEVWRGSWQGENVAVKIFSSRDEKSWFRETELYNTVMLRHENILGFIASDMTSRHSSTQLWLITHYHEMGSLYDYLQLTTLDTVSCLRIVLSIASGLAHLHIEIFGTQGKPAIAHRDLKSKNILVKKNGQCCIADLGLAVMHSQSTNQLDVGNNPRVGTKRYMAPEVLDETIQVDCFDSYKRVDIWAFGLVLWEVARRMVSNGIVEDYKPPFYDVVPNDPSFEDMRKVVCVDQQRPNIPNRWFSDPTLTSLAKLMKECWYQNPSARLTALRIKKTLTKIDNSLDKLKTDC
Sequence of UniProt P43403 (whole entry, looked up): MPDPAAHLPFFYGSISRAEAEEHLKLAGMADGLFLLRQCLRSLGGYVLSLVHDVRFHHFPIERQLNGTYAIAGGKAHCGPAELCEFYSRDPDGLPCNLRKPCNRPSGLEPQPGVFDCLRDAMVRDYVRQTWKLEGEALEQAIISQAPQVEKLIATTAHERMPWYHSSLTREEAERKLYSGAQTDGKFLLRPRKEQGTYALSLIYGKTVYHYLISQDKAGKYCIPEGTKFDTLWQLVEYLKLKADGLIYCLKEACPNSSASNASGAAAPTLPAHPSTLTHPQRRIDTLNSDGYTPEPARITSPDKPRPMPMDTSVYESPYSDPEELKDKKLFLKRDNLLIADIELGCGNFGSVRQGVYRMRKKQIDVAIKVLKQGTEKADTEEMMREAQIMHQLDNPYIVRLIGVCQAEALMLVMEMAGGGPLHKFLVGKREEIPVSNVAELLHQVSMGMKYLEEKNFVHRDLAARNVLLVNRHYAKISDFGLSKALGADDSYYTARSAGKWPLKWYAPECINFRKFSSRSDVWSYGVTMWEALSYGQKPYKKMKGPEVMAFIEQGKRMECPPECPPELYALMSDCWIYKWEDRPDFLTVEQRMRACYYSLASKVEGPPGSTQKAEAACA
Sequence of UniProt Q2M2I8 (whole entry, looked up): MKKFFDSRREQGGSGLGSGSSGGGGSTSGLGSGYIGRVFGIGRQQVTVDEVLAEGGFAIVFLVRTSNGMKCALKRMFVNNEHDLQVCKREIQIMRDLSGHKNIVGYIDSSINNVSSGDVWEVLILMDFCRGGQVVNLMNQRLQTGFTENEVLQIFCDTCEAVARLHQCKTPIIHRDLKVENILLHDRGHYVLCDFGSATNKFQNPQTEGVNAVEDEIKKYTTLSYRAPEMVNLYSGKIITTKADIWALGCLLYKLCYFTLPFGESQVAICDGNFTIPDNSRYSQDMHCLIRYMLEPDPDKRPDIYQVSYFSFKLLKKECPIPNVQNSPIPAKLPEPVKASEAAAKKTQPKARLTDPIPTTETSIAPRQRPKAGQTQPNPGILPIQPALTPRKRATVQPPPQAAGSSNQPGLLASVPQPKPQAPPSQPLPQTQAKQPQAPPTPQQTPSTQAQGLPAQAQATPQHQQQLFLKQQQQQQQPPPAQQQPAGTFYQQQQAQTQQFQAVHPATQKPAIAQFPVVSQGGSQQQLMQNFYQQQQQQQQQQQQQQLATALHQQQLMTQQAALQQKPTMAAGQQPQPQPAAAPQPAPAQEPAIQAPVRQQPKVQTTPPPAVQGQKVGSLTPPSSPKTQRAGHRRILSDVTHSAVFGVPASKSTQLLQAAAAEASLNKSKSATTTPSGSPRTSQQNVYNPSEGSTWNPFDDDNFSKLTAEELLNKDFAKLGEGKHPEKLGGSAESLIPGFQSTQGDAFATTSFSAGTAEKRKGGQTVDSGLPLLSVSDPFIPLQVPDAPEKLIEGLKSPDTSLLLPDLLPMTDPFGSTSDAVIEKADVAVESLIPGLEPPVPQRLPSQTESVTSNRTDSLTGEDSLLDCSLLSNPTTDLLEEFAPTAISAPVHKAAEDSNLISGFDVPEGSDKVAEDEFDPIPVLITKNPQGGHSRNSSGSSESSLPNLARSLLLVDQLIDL
Sequence of UniProt P53350 (whole entry, looked up): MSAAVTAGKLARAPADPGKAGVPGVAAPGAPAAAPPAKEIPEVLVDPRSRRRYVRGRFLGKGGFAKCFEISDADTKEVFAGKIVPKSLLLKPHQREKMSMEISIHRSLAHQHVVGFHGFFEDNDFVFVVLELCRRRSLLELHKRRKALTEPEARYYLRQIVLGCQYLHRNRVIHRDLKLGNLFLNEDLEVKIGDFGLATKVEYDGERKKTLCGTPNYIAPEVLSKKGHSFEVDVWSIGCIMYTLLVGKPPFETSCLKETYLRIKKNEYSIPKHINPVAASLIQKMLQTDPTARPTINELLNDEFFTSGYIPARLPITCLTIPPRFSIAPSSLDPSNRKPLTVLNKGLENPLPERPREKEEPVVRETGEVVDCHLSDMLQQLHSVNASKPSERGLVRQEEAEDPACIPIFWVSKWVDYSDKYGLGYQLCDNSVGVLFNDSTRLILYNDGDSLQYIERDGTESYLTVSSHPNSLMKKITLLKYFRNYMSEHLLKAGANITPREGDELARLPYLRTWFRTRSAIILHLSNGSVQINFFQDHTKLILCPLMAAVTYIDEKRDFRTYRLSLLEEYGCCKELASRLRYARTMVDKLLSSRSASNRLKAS
Sequence of UniProt P51956 (whole entry, looked up): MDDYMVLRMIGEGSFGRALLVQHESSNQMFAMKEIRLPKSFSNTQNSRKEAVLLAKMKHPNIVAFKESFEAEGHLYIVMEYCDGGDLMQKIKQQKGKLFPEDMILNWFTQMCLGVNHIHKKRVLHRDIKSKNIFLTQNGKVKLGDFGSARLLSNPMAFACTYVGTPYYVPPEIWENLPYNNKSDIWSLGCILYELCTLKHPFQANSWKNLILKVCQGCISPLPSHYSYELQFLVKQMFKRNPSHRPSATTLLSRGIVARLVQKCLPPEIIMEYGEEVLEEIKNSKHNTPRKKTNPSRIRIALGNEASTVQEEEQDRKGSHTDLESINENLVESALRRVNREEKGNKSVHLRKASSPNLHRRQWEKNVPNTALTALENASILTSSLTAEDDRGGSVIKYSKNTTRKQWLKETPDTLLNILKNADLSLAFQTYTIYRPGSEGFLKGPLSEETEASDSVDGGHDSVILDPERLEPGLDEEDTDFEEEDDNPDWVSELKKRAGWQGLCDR

COc1cccc(NC(=O)Nc2ccc(Oc3nc4ccccc4n4cnnc34)cc2)c1  viability (WI-38; cell growth or viability, MTT; 12.5 µM, 24 h): 87.1%
COc1cccc2c1C(=O)c1c(O)c3c(c(O)c1C2=O)C[C@@](O)(C(=O)CO)C[C@@H]3O[C@H]1C[C@H](N)[C@H](O)[C@H](C)O1  viability (WI-38; cell growth or viability, MTT; 12.5 µM, 24 h): 34%
Nc1ccn([C@@H]2O[C@H](CO)[C@@H](O)C2(F)F)c(=O)n1  viability (MDA-MB-231; cell growth or viability, MTT; 1.25 µg/mL, 24 h): 81.7%
N[C@H]1C(O)O[C@H](CO)[C@@H](O)[C@@H]1O (stereo partly drawn)  viability (Caco-2; cell growth or viability, CCK-8; 1 µM): 97.6%
CNc1ncc2c(/C=C/C(=O)N3CCC(OC)CC3)nn(Cc3cccc(C(F)(F)F)c3)c2n1  remaining activity (ACVR1 (Homo sapiens, UniProt Q04771); enzyme activity, inhibitor, radiometric; 1 µM): 92%
O=C1CCCCC1=C1Sc2nc3ccc(S(=O)(=O)N4CCCC4)cc3nc2S1  viability (WI-38; cell growth or viability, MTT; 100 µM, 24 h): 47.9%
CCCCC(=O)Nc1ccc(-c2ccc3ncn(CCC)c(=O)c3c2)cn1  remaining binding (AAK1 (Homo sapiens, UniProt Q2M2I8); binding, competition with immobilised ligand; 0.5 µM): 100%
COc1cccc2c1C(=O)c1c(O)c3c(c(O)c1C2=O)C[C@@](O)(C(=O)CO)C[C@@H]3O[C@H]1C[C@H](N)[C@H](O)[C@H](C)O1  viability (K562; cell growth or viability, MTT; 25 µg/mL): 52.3%
CNC(=O)c1cc(Oc2ccc(NC(=O)Nc3ccc(Cl)c(C(F)(F)F)c3)cc2)ccn1  viability (WI-38; cell growth or viability, MTT; 3.125 µM, 24 h): 78.6%
Cc1cc([C@@H](C)Nc2ccccc2C(=O)O)c2nc(N3CCC(F)(F)CC3)c(C#N)c(=O)n2c1  remaining binding (ZAP70 (Homo sapiens, UniProt P43403); binding, competition with immobilised ligand; 10 µM): 100%
CC(=O)c1nn(-c2ccc(C)cc2)/c(=N/N=C(\C)c2ccc(NC(=O)c3ccccc3)cc2)s1  viability (WI-38; cell growth or viability, MTS; 5 µM, 24 h): 4.93%
C=CC(=O)N1CCC(COCC(=O)N2CCN(c3nc(-c4cnc(N)nc4C(F)F)nc(N4CCOC[C@@H]4C)n3)CC2)CC1  remaining binding (PLK1 (Homo sapiens, UniProt P53350); binding, competition with immobilised ligand; 1 µM): 100%
COc1cc(N2CCC(N3CCN(C)CC3)CC2)ccc1Nc1ncc(Cl)c(Nc2ccccc2P(C)(C)=O)n1  viability (Ba/F3 EML4-ALK; cell growth or viability, CCK-8; 1 µM, 1 h): 64% and 68%
CCOC(=O)C(C(C)=O)=C1Sc2nc3ccc(S(=O)(=O)N4CCCC4)cc3nc2S1  viability (WI-38; cell growth or viability, MTT; 3.125 µM, 24 h): 100%
COc1cc(-c2cncc3c2CN(C)Cc2cc(N4CCNCC4)ccc2-3)cc(OC)c1OC  remaining activity (NEK3 (Homo sapiens, UniProt P51956); enzyme activity, inhibitor; 1 µM): 100%
